Experimental data pooled from the literature.
Lines come from different studies, so protocols differ. Numbers after ± are the reported error.
Sequence of UniProt Q6P2M8 (whole entry, looked up): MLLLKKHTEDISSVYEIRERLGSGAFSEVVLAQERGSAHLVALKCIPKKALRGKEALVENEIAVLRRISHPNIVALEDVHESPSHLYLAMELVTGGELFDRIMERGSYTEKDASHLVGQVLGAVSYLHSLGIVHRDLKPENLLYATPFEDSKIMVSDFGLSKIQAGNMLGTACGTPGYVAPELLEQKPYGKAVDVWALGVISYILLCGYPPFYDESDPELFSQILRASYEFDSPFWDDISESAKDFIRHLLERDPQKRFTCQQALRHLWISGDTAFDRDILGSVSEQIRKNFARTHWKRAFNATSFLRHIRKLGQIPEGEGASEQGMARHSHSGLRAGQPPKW

| Structure (SMILES) | target or system | test | test system | conditions | measurement | value |
| --- | --- | --- | --- | --- | --- | --- |
| CS(C)(=O)=Nc1ccc(-c2ccc(-c3nc4cc(O[C@@H]5CO[C@H]6[C@@H]5OC[C@H]6O)[nH]c4cc3F)cc2)cc1 | PIM3 (Homo sapiens, UniProt Q86V86) | enzyme activity, inhibitor | – | 10 µM | inhibition | -9% |
| Cn1nc(NS(C)(=O)=O)c2c(Cl)ccc(-n3c([C@H](Cc4cc(F)cc(F)c4)NC(=O)Cn4nc(C(F)F)c5c4C(F)(F)[C@@H]4C[C@H]54)nc4nc(OCCC(F)(F)F)ccc4c3=O)c21 | – | – | human, plasma | oral, 200 mg single dose, tablet, geometric mean | Cmax | 61.9 ng/mL |
| CN1CCCCC1C(=O)NC(Cc1ccc(-c2ccccc2)cc1)B(O)O (stereo not shown) | – | – | rat, plasma | oral, 1 mg/kg | Cmax | 282 nM |
| CN(C)[C@H]1C[C@@]23CC[C@@]4(O2)C(=CC[C@]2(C)[C@@H](c5ccc6ccncc6c5)CC[C@H]24)C=C3[C@@H](O)[C@@H]1O | PNCK (Homo sapiens, UniProt Q6P2M8) | ATP probe labelling, inhibitor, KiNativ profiling | – | 1 µM | inhibition | -0.6% |
| CC(C)(C)C(=O)OCOP(=O)(OCOC(=O)C(C)(C)C)C1CCCN(O)C1=O (stereo not shown) | NCI-H460 | – | – | – | log GI50 | -6.25 log M |
| Cc1nc(N2CCC(N(C)c3cc(C(=O)NCCN4CCCC4)cnn3)CC2)nc(C)c1CC(C)C | – | – | female hamster | oral, 100 mg/kg | Cmax | 8640 ng/mL |
| COc1nc(CC=C(C)CC=CC(C)=CC(C)C(OC2OC(CO)C(O)C(O)C2O)C(C)=CCO)c(C)c(O)c1OC (stereo not shown) | – | – | C57BL/6 mouse, plasma | oral, 10 mg/kg | Cmax | 230 ng/mL |
| CC[C@H](C)[C@H](NC(=O)[C@H](CO)NC(=O)[C@H](Cc1ccc(O)cc1)NC(=O)[C@H](Cc1ccc(O)cc1)NC(=O)[C@H](CC(N)=O)NC(=O)CNC(=O)[C@H](CO)NC(=O)[C@H](Cc1ccc(O)cc1)NC(=O)[C@H](CO)NC(=O)[C@H](CO)NC(=O)[C@H](CC(N)=O)NC(=O)COCCOCCNC(=O)CN1CCN(CC(=O)O)CCN(CC(=O)O)CCN(CC(=O)O)CC1)C(=O)N[C@@H](CC(C)C)C(N)=O [copper-64 labelled] | – | dynamic PET | KPC mouse Ptf1a-CreER tdTomato, pancreas | intravenous, 4.6 MBq/mouse, 12.5 min, 84 d after tamoxifen | tissue uptake | 12.9 %ID/mL |
| O=C1NC2(CC2)COc2ncc(F)cc2[C@H]2COCCN2c2ccn3ncc1c3n2 | – | – | Sprague-Dawley rat, male, serum | oral, 20 mg/kg/day, end of treatment, 4-week subacute toxicity | serum total bilirubin | 1.1 ± 0.4 µmol/L |
| CC1(C)C(=O)N(c2ccc(C#N)c(C(F)(F)F)c2)C(=S)N1c1ccc(C(N)=O)c(F)c1 | – | – | human, male, plasma | oral, 80 mg, soft capsule | Cmax | 275 ± 59.7 ng/mL |
| CCCCCn1ccc(C(=O)NC(C)(C)c2ccc(CNC(C)=O)cc2)n1 | – | – | mouse, plasma | intraperitoneal, 2.5 mg/kg | Cmax | 150 ng/mL |
| CC(C)[C@H]1NC(=O)[C@H](Cc2ccccc2)NC(=O)[C@@H](C(C)C)NC(=O)[C@@H](C)NC(=O)[C@H](CO)NC(=O)[C@@H](Cc2c(-c3ccc(-c4ccc5ccccc5c4)cc3)[nH]c3ccccc23)NC(=O)[C@@H](CO)NC1=O | – | – | female Sprague-Dawley rat, plasma | intravenous, 1 mg/kg, single dose | Cmax | 32000 ng/mL |
| CCCCCCCCCCCCCCCC(=O)N[C@@H](CCC(=O)NCCOCCOCCC(=O)NCCOCCOCCC(=O)NCCCC[C@H](NC(=O)[C@H](CC(=O)O)NC(=O)[C@H](CC(C)C)NC(=O)[C@H](Cc1ccc(O)cc1)NC(=O)[C@H](CCCCN)NC(=O)[C@H](CO)NC(=O)[C@H](Cc1ccc(O)cc1)NC(=O)[C@H](CC(=O)O)NC(=O)[C@H](CO)NC(=O)[C@@H](NC(=O)[C@H](Cc1ccccc1)NC(=O)[C@@H](NC(=O)CNC(=O)[C@H](CCC(N)=O)NC(=O)[C@@H](CO)NC(=O)[C@@H](N)Cc1c[nH]cn1)[C@@H](C)O)[C@@H](C)O)C(=O)N[C@@H](CCCNC(=N)N)C(=O)N[C@@H](CCCNC(=N)N)C(=O)N[C@@H](C)C(=O)N[C@@H](CCC(N)=O)C(=O)N[C@@H](CC(=O)O)C(=O)N[C@@H](Cc1ccccc1)C(=O)N[C@H](C(=O)N[C@@H](CCC(N)=O)C(=O)N[C@@H](Cc1c[nH]c2ccccc12)C(=O)N[C@@H](CC(C)C)C(=O)N[C@@H](CC(C)C)C(=O)N[C@@H](CC(N)=O)C(=O)N[C@H](C(=O)NCC(=O)NCC(=O)N1CCC[C@H]1C(=O)N[C@@H](CO)C(=O)N[C@@H](CO)C(=O)NCC(=O)N[C@@H](C)C(=O)N1CCC[C@H]1C(=O)N1CCC[C@H]1C(=O)N1CCC[C@H]1C(=O)N[C@@H](CO)C(N)=O)[C@@H](C)O)C(C)C)C(=O)O | – | – | rhesus monkey, female, plasma | subcutaneous, 20 µg/kg, day 28, toxicokinetics, mean | Cmax | 25.1 ng/mL |
| CN[C@H](CC(C)C)C(=O)N[C@H]1C(=O)N[C@@H](CC(N)=O)C(=O)N[C@H]2C(=O)N[C@H]3C(=O)N[C@H](C(=O)N[C@H](C(=O)O)c4cc(O)cc(O)c4-c4cc3ccc4O)[C@H](O)c3ccc(c(Cl)c3)Oc3cc2cc(c3O[C@@H]2O[C@H](CO)[C@@H](O)[C@H](O)[C@H]2O[C@H]2C[C@](C)(NCc3ccc(-c4ccc(Cl)cc4)cc3)[C@H](O)[C@H](C)O2)Oc2ccc(cc2Cl)[C@H]1O | – | – | mouse, plasma | intravenous, 75 mg/kg | Cmax | 125000 ng/mL |
| CC1(C)C(=O)N(c2ccc(C#N)c(C(F)(F)F)c2)C(=S)N1c1ccc(C(=O)O)c(F)c1 | – | – | human, male, plasma | oral, 40 mg, soft capsule | Cmax | 27.3 ± 6.79 ng/mL |
| NC1CCN(C(=O)Oc2ccc(C3CCCC4(C3)OOC3(O4)C4CC5CC(C4)CC3C5)cc2)CC1 (racemic) | – | – | male Sprague-Dawley rat, plasma | oral, 50 mg/kg | Cmax | 220 ng/mL |

Some of these lines once more:
| Structure (SMILES) | target or system | test | test system | conditions | measurement | value |
| --- | --- | --- | --- | --- | --- | --- |
| CC1(C)C(=O)N(c2ccc(C#N)c(C(F)(F)F)c2)C(=S)N1c1ccc(C(=O)O)c(F)c1 | – | – | human, male, plasma | oral, 40 mg, soft capsule | Cmax | 27.3 ± 6.79 ng/mL |
